Published values collected from several papers.
A part holds a random share of what one study measured. “And” joins repeats or separate records; there may be more than shown.
Sequence of UniProt P00519 (whole entry, unmodified, looked up): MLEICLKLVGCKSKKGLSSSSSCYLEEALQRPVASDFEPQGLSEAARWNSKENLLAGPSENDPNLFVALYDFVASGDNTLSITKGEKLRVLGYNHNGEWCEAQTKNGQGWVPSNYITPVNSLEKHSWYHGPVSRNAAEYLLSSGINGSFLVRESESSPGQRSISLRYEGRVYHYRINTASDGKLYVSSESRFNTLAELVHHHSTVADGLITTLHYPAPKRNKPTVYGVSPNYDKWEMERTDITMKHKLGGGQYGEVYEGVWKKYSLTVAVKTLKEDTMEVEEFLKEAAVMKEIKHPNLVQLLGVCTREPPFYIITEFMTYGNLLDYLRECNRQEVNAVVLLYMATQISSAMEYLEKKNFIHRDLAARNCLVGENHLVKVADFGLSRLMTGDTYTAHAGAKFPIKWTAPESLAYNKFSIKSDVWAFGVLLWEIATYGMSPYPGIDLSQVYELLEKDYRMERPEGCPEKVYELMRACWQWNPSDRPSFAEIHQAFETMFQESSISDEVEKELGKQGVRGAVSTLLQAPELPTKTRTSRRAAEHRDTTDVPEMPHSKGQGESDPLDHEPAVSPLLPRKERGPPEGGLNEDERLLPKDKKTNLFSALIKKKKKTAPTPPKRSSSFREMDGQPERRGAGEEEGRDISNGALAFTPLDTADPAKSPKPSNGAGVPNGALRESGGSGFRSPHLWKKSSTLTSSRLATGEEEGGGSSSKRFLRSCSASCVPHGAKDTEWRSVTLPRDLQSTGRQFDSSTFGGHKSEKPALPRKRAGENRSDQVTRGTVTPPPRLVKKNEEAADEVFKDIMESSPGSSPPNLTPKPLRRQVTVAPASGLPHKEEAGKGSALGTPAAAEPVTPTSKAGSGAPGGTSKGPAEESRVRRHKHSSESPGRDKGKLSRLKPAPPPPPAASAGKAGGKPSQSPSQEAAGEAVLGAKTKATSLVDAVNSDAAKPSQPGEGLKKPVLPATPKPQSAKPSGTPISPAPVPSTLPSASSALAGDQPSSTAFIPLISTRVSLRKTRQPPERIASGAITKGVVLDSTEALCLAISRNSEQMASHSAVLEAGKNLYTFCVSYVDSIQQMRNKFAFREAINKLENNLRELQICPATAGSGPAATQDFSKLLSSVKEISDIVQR
Sequence of UniProt P16234 (whole entry, looked up): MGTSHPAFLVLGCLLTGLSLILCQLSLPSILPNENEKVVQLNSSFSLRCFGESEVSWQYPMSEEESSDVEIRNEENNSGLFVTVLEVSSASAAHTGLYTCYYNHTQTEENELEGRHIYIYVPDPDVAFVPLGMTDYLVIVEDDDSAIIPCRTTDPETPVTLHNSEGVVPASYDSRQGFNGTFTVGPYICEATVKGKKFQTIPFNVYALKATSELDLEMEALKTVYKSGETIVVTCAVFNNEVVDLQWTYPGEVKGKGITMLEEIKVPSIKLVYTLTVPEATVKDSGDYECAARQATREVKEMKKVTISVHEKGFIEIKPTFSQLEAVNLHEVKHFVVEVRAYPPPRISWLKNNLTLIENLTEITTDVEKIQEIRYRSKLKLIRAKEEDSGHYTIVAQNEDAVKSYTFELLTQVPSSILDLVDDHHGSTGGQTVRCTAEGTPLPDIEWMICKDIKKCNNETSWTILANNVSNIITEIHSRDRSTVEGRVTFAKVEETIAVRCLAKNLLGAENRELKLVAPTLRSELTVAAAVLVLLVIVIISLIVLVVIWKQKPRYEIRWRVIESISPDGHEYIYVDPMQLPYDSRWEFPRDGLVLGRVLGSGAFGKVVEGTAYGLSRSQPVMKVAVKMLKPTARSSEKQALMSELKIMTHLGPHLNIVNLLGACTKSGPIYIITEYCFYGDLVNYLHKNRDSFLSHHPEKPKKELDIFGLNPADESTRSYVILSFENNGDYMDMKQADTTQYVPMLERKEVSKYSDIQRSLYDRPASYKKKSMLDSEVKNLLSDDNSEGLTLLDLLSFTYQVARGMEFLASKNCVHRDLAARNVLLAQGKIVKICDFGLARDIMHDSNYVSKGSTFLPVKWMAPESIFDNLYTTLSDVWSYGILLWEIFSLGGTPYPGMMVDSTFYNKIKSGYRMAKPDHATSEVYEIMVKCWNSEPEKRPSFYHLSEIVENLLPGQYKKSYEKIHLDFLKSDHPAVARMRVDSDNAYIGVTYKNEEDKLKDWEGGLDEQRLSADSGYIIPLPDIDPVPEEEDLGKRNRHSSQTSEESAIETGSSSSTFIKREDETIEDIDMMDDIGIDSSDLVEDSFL

Sample 1
SMILES: CC(C)n1cnc(-c2ccc(F)cc2)c1-c1ncc(C(=O)Nc2ccc(N3CCN(C)CC3)cc2)[nH]1
| technique | measured | species | route | dose | notes | patients with TEAE |
| --- | --- | --- | --- | --- | --- | --- |
| – | nervous system disorders | idiopathic pulmonary fibrosis patients | – | 30 mg once daily | – | 0% |
| phase 2a trial | – | idiopathic pulmonary fibrosis patients | oral | dose not given | GLDH increased, grade 3, all arms | 0% |
| phase 2a trial | – | patients with idiopathic pulmonary fibrosis | – | 60 mg once daily | atopic dermatitis, grade 1 | 0% |
| phase 2a trial | – | idiopathic pulmonary fibrosis patients | oral | 60 mg once daily | disc protrusion, grade 5 | 0% |
| phase 2a trial | – | patients with idiopathic pulmonary fibrosis | – | dose not given | atopic dermatitis, grade 4, all arms | 0% |

Sample 2 — species: human; sample: microsomes or S9; concentration: 2 µM; time: 0.5 h
| SMILES | remaining compound [%] |
| --- | --- |
| COC(=O)[C@@H](O)c1c(C)nc2[nH]c3c(c2c1-c1ccc(Cl)cc1)CCCC3 | 55 |
| CC(c1ccc(NC(=O)N2CCC=C(F)C2)cc1)N1CCOCC1 (stereo not drawn) | > 100 |
| c1ccc(-c2csc(-c3nc(-c4cccs4)cs3)n2)cc1 | 94.7 |
| Cn1nccc1-c1cccc(-c2ccc(=O)n(C)n2)c1 | 96.8 |
| COc1cc(OC)cc(OC/C(=C\c2ccc(C(=O)O)cc2)CNc2cnc3ccccc3c2)c1 | 7.89 |

Sample 3 — read-out: enzyme activity; mode: inhibitor; concentration: 77 µM; reference: untreated
Target: DNA polymerase theta, ATPase domain (POLQ, Homo sapiens, UniProt O75417)
Sequence of UniProt O75417 (whole entry, unmodified, looked up): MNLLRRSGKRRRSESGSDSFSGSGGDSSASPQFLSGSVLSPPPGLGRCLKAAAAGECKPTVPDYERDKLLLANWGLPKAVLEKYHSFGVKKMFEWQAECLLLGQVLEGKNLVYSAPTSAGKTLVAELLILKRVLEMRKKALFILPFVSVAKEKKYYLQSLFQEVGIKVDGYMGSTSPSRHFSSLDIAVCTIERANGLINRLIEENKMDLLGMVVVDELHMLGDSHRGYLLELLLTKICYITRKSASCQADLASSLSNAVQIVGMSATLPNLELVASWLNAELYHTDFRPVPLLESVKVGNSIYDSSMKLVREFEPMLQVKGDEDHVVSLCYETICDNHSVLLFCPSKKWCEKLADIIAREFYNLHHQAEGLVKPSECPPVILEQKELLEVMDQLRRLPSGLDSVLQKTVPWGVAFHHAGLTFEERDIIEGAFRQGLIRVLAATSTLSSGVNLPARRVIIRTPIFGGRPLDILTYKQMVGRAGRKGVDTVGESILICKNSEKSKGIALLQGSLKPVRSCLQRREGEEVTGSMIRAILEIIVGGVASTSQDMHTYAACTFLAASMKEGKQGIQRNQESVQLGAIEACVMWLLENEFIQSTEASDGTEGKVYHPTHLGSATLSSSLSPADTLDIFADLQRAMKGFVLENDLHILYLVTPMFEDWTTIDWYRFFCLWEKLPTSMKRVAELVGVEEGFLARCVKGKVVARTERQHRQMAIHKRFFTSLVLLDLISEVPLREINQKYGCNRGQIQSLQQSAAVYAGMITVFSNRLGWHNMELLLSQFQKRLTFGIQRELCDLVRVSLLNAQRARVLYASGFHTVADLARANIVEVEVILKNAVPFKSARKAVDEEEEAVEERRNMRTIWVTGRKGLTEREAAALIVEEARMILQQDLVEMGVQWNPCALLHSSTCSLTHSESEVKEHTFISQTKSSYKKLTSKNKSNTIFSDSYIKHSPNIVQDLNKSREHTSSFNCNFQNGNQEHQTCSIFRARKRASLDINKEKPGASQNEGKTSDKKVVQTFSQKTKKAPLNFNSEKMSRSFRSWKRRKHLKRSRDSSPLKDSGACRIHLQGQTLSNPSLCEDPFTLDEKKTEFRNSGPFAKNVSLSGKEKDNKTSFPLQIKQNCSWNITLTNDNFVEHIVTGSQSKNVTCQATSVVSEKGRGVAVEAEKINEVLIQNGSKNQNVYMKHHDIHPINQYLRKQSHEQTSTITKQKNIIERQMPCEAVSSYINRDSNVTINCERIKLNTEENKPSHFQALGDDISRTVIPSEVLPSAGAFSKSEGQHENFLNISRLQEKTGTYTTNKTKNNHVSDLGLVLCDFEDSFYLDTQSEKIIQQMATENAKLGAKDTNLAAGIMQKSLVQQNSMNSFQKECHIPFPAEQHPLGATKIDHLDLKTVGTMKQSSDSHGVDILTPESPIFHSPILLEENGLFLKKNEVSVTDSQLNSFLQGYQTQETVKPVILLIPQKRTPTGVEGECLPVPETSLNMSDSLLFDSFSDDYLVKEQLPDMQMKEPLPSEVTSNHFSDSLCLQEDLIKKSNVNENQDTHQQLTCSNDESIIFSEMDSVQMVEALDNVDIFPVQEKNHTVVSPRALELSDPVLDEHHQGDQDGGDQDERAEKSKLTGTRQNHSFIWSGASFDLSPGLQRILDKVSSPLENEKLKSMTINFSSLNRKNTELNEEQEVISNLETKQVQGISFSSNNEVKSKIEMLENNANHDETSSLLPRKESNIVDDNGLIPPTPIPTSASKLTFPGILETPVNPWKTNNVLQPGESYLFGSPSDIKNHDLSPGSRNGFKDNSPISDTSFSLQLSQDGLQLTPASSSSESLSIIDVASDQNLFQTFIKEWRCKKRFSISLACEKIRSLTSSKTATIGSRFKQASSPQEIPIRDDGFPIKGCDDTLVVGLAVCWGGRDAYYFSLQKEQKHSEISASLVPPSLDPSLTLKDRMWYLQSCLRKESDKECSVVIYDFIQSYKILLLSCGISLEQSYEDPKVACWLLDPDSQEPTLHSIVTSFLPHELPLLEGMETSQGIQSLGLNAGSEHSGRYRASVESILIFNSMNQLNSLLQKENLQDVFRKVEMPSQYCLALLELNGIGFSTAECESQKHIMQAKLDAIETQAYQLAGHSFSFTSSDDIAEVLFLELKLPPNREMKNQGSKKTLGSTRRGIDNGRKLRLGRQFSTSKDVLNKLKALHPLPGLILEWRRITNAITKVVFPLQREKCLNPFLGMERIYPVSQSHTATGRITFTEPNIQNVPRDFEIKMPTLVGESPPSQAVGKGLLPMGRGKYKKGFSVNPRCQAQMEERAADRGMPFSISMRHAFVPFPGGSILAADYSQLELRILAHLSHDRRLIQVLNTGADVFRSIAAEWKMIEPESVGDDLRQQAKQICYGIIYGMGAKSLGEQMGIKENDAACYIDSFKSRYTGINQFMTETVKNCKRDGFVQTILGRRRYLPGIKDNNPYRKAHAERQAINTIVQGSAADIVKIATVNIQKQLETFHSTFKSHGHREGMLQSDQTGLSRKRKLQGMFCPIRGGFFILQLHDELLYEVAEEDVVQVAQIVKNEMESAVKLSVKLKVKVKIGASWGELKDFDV
| Structure (SMILES) | remaining activity |
| --- | --- |
| Fc1ccc(CN(C2=NCCN2)c2c(Cl)cccc2Cl)cc1 | 103% |
| OCC(CO)N[C@H]1C[C@](O)(CO)[C@@H](O)[C@H](O)[C@H]1O | 102% |
| CCOC(=O)c1ccc(NC2CCCCC2)c(N)c1 | 94.3% |
| NS(=O)(=O)c1cc(Cl)c(Cl)c(S(N)(=O)=O)c1 | 101% and 99.8% |
| CCCS(=O)(=O)Nc1ccc(F)c(C(=O)c2c[nH]c3ncc(-c4ccc(Cl)cc4)cc23)c1F | 72.5% |

Sample 4 — read-out: binding; concentration: 1 µM
SMILES: COc1ccc2[nH]c3c4[nH]c5ccc(OC)cc5c4c4c(c3c2c1)C(=O)NC4=O
| target | technique | remaining binding |
| --- | --- | --- |
| RAC-beta serine/threonine-protein kinase (AKT2, Homo sapiens, UniProt P31751) | – | 84% |
| Ribosomal protein S6 kinase alpha-6, C-terminal kinase domain (RPS6KA6, Homo sapiens, UniProt Q9UK32) | competition with immobilised ligand | 61% |
| Tyrosine-protein kinase ABL1, non-phosphorylated (ABL1, Homo sapiens, UniProt P00519) | competition with immobilised ligand | 58% |

Sample 5 — technique: competition with immobilised ligand; concentration: 0.1 µM
Structure (SMILES): Cc1c[nH]c2nccc(Oc3c(F)cc(Nc4cc(Cl)nc(N)n4)cc3F)c12
| target | read-out | remaining binding [%] |
| --- | --- | --- |
| Ephrin type-A receptor 3 (EPHA3, Homo sapiens, UniProt P29320) | cell-free assay | 97 |
| Phosphatidylinositol 4,5-bisphosphate 3-kinase catalytic subunit beta isoform (PIK3CB, Homo sapiens, UniProt P42338) | cell-free assay | 76 |
| Serine/threonine-protein kinase 25 (STK25, Homo sapiens, UniProt O00506) | cell-free assay | 100 |
| Platelet-derived growth factor receptor alpha (PDGFRA, Homo sapiens, UniProt P16234) | cell-free assay | 84 |
| Mitogen-activated protein kinase 9 (MAPK9, Homo sapiens, UniProt P45984) | cell-free assay | 93 |
| Dual specificity mitogen-activated protein kinase kinase 4 (MAP2K4, Homo sapiens, UniProt P45985) | cell-free assay | 99 |
| Tyrosine-protein kinase ITK/TSK (ITK, Homo sapiens, UniProt Q08881) | cell-free assay | 81 |
| Serine/threonine-protein kinase haspin (HASPIN, Homo sapiens, UniProt Q8TF76) | cell-free assay | 61 |
| Serine/threonine-protein kinase Sgk2 (SGK2, Homo sapiens, UniProt Q9HBY8) | cell-free assay | 69 |
| TGF-beta receptor type-2 (TGFBR2, Homo sapiens, UniProt P37173) | cell-free assay | 100 |
| BDNF/NT-3 growth factors receptor (NTRK2, Homo sapiens, UniProt Q16620) | cell-free assay | 94 |
| Cyclin-dependent kinase 11A (CDK11A, Homo sapiens, UniProt Q9UQ88) | binding | 100 |
| Glycogen synthase kinase-3 beta (GSK3B, Homo sapiens, UniProt P49841) | cell-free assay | 98 |
| Tyrosine-protein kinase Blk (BLK, Homo sapiens, UniProt P51451) | cell-free assay | 90 |
| Mitogen-activated protein kinase kinase kinase kinase 5 (MAP4K5, Homo sapiens, UniProt Q9Y4K4) | cell-free assay | 93 |
| Ribosomal protein S6 kinase alpha-5, C-terminal kinase domain (RPS6KA5, Homo sapiens, UniProt O75582) | cell-free assay | 93 |
| Mast/stem cell growth factor receptor Kit (KIT, Homo sapiens, UniProt P10721, D816H) | cell-free assay | 95 |
| G protein-coupled receptor kinase 4 (GRK4, Homo sapiens, UniProt P32298) | cell-free assay | 100 |
| Serine/threonine-protein kinase B-raf (BRAF, Homo sapiens, UniProt P15056) | cell-free assay | 98 |
| Phosphatidylinositol 4,5-bisphosphate 3-kinase catalytic subunit gamma isoform (PIK3CG, Homo sapiens, UniProt P48736) | cell-free assay | 88 |
| Tyrosine-protein kinase ABL1, phosphorylated (ABL1, Homo sapiens, UniProt P00519, F317L) | cell-free assay | 74 |
| Mitogen-activated protein kinase kinase kinase 6 (MAP3K6, Homo sapiens, UniProt O95382) | cell-free assay | 100 |
| Ephrin type-A receptor 7 (EPHA7, Homo sapiens, UniProt Q15375) | cell-free assay | 82 |
| Leukocyte tyrosine kinase receptor (LTK, Homo sapiens, UniProt P29376) | cell-free assay | 99 |
| Serine/threonine-protein kinase Nek11 (NEK11, Homo sapiens, UniProt Q8NG66) | cell-free assay | 75 |

Single results of other studies
KRAS Q61H: GTPase KRas (KRAS, Homo sapiens, UniProt P01116, Q61H)
| SMILES | target or system | read-out | technique | concentration | time | measurement | result |
| --- | --- | --- | --- | --- | --- | --- | --- |
| O[C@@H](c1cc(C(F)(F)F)nc2c(C(F)(F)F)cccc12)[C@H]1CCCCN1 | A-375 | – | – | 100 µM | 60 h | viability | 102% |
| CC(=O)N1CCN(c2nc(OC[C@@H]3CCCN3C)nc3c2CCN(c2cccc4cccc(Cl)c24)C3)C[C@@H]1CC#N | KRAS Q61H | target engagement in cells | BRET | – | – | IC50 | 1200 nM |
| COc1cccc2c1C(=O)c1c(O)c3c(c(O)c1C2=O)C[C@@](O)(C(C)=O)C[C@@H]3O[C@H]1C[C@H](N)[C@H](O)[C@H](C)O1 | A-375 | – | – | 100 µM | 60 h | viability | 17.9% |
| CCC(=O)N1CCN(c2nc(OC[C@@H]3CCCN3C)nc3c2CCN(c2cccc4cccc(Cl)c24)C3)C[C@@H]1CC#N | KRAS Q61H | target engagement in cells | BRET | – | – | IC50 | 1200 nM |
| OC[C@H]1O[C@@H](O[C@@H]2[C@@H](CO)OC(O)(CO)[C@H]2O)[C@H](O)[C@@H](O)[C@H]1O (mixture of isomers) | HaCaT | – | – | 100 µM | 60 h | viability | 136% |
| CCCCCCCCCCCCCCCCOP(=O)([O-])OCC[N+](C)(C)C | THP-1 | host cell growth | – | 0.01 µM | – | inhibition | -3.96% and -9.73% and -2.99% and -3.02% and -0.47% and -0.37% |
| O=C(c1cc(Cc2n[nH]c(=O)c3ccccc23)ccc1F)N1CCN(C(=O)C2CC2)CC1 | HaCaT | – | – | 100 µM | 60 h | viability | 96.2% |
| C[C@@H]1[C@H](O)[C@@H](C)/C=C/C=C/C=C/C=C/C=C/C=C/C=C/[C@H](O[C@@H]2O[C@H](C)[C@@H](O)[C@H](N)[C@@H]2O)C[C@@H]2O[C@](O)(C[C@@H](O)C[C@@H](O)[C@H](O)CC[C@@H](O)C[C@@H](O)CC(=O)O[C@H]1C)C[C@H](O)[C@H]2C(=O)O | THP-1 | host cell growth | – | 0.02 µM | – | inhibition | -1.78% and -0.72% and -3.11% and -1.81% and -0.47% and 2.73% |

A few entries again (sample 5):
| target | read-out | remaining binding [%] |
| --- | --- | --- |
| Glycogen synthase kinase-3 beta (GSK3B, Homo sapiens, UniProt P49841) | cell-free assay | 98 |
| Tyrosine-protein kinase Blk (BLK, Homo sapiens, UniProt P51451) | cell-free assay | 90 |
| Mitogen-activated protein kinase kinase kinase kinase 5 (MAP4K5, Homo sapiens, UniProt Q9Y4K4) | cell-free assay | 93 |
| Ribosomal protein S6 kinase alpha-5, C-terminal kinase domain (RPS6KA5, Homo sapiens, UniProt O75582) | cell-free assay | 93 |
| Mast/stem cell growth factor receptor Kit (KIT, Homo sapiens, UniProt P10721, D816H) | cell-free assay | 95 |
